Measurements pooled from the literature.
Compare with care: the assays were run in different laboratories. ± marks the error that the study gave.
CHRM3: Muscarinic acetylcholine receptor M3 (CHRM3, Homo sapiens, UniProt P20309)
Sequence of UniProt P20309 (whole entry, looked up): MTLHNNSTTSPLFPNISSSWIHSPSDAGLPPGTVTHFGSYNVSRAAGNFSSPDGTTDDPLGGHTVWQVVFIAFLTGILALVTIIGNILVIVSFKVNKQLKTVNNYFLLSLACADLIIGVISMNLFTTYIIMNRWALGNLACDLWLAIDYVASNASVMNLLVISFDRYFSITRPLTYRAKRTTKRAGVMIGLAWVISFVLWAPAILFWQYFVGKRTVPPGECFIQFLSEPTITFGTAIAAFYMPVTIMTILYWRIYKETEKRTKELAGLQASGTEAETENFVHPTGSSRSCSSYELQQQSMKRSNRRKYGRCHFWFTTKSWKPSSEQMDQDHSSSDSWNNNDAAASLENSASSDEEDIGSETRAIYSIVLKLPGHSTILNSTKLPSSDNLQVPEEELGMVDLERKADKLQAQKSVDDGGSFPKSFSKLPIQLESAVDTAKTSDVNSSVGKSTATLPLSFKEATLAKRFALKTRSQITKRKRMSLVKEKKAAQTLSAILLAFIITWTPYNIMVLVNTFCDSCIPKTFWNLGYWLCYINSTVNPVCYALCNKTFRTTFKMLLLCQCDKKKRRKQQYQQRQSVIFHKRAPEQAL

SMILES	tested on	assay	test system	setting	scale	measurement	result
CCCC[C@H](NC(=O)CNC(=O)CNC(=O)CN1CCN(CC(=O)O)CCN(CC(=O)O)CC1)C(=O)N[C@H]1CC(=O)NCCCC[C@@H](C(N)=O)NC(=O)[C@H](Cc2c[nH]c3ccccc23)NC(=O)[C@H](CCCNC(=N)N)NC(=O)[C@@H](Cc2ccccc2)NC(=O)[C@H](Cc2c[nH]cn2)NC1=O [technetium-99m labelled]			C57 mouse, heart	iv, 0.037 MBq, 4 h		tissue uptake	0.07 ± 0.03 %ID/g
COc1ccc2cc([C@H](C)C(=O)NCCCC[C@@H](NC(=O)[C@@H](Cc3ccccc3)NC(=O)[C@H](N)Cc3ccccc3)C(=O)O)ccc2c1		oscillatory rheology	hydrogel 0.8 wt%			critical strain	0.41%
CN1C(=O)[C@@H](Cc2ccc(O)cc2)NC(=O)CNC(=O)[C@H](Cc2ccc3ccccc3c2)NC(=O)[C@H](CCCNC(=N)N)NC(=O)[C@H]1CCCNC(=O)c1ccc(CNC(=O)CN2CCN(CC(=O)O)CCN(CC(=O)O)CCN(CC(=O)O)CC2)cc1 [gallium-68 labelled]			C57BL/6 mice, no tumour, kidney	highest of vital organs		kidney uptake	~6.3 %ID/g
N=C(N)NCCC[C@H](NC(=O)[C@@H]1CSSC[C@H](NC(=O)[C@H](Cc2ccc3ccccc3c2)NC(=O)[C@H](CCCNC(=N)N)NC(=O)[C@H](CCCNC(=N)N)NC(=O)CN2CCN(CC(=O)O)CCN(CC(=O)O)CC2)C(=O)N[C@@H](Cc2ccc(O)cc2)C(=O)N[C@@H](CCCNC(N)=O)C(=O)N[C@@H](CCCCN)C(=O)N[C@H](CCCCN)C(=O)N2CCC[C@H]2C(=O)N[C@@H](Cc2ccc(O)cc2)C(=O)N[C@@H](CCCNC(=N)N)C(=O)N[C@@H](CCCNC(N)=O)C(=O)N1)C(N)=O [gallium-68 labelled]			normal brain			SUVmax range	0.1 to 0.13
CCCCCCCC/C=C\CCCCCCCC(=O)OC[C@H](NC(=O)[C@H](Cc1c[nH]c2ccccc12)NC(=O)[C@H](Cc1c[nH]cn1)NC(=O)[C@@H]1CCC(=O)N1)C(=O)N[C@@H](Cc1ccc(O)cc1)C(=O)N[C@H](CC(C)C)C(=O)N[C@@H](CC(C)C)C(=O)N[C@@H](CCCNC(=N)N)C(=O)N1CCC[C@H]1C(=O)NCC		HPLC	human plasma	1 mg/mL, 4 weeks, 37 °C		conversion to leucine	83.4%
CCCC[C@H](NC(=O)CNC(=O)CNC(=O)CN1CCN(CC(=O)O)CCN(CC(=O)O)CCN(CC(=O)O)CC1)C(=O)N[C@H]1CC(=O)NCCCC[C@@H](C(N)=O)NC(=O)[C@H](Cc2c[nH]c3ccccc23)NC(=O)[C@H](CCCNC(=N)N)NC(=O)[C@@H](Cc2ccccc2)NC(=O)[C@H](Cc2c[nH]cn2)NC1=O [lutetium-177 labelled]			C57 mouse, female, muscle	intravenous, 0.037 MBq, 0.5 h		tissue uptake	1.05 ± 0.34 %ID/g
CCCC[C@H](NC(=O)COCCOCCNC(=O)CN1CCN(CC(=O)O)CCN(CC(=O)O)CC1)C(=O)N[C@H]1CC(=O)NCCCC[C@@H](C(N)=O)NC(=O)[C@H](Cc2c[nH]c3ccccc23)NC(=O)[C@H](CCCNC(=N)N)NC(=O)[C@@H](Cc2ccccc2)NC(=O)[C@H](Cc2c[nH]cn2)NC1=O [copper-64 labelled]			C57 mice, tumor	intravenous, 0.37 MBq, 2 h		tissue uptake	19.6 ± 1.48 %ID/g
Cc1cc(-c2ccc(NC(=O)[C@H](CCCCNC(=O)CCOCCOCCC(=O)N[C@H](Cc3ccccc3)C(=O)N[C@H]3CSSC[C@@H](C(=O)N[C@H](C(=O)O)[C@@H](C)O)NC(=O)[C@H]([C@@H](C)O)NC(=O)[C@H](CCCCN)NC(=O)[C@@H](Cc4c[nH]c5ccccc45)NC(=O)[C@H](Cc4ccc(O)cc4)NC3=O)NC(=O)CN3CCN(CC(=O)O)CCN(CC(=O)O)CCN(CC(=O)O)CC3)c(C)c2)ccc1N=Nc1ccc2c(S(=O)(=O)O)cc(S(=O)(=O)O)c(N)c2c1O [gallium-68 labelled]		micro-PET	male BALB/c nude mouse, AR42J xenograft, tumour and kidney	intravenous, 7.4 MBq, 4 h	reference: tumour over kidney	tumour-to-tissue uptake ratio	2.02 ± 0.23
N=C(N)NCCC[C@@H]1NC(=O)[C@H](CCCCNC(=O)CNC(=O)CNC(=O)CNC(=O)CC[C@H](NC(=O)CNC(=O)CNC(=O)CNC(=O)CN2CCN(CC(=O)O)CCN(CC(=O)O)CCN(CC(=O)O)CC2)C(=O)NCC(=O)NCC(=O)NCC(=O)NCCCC[C@@H]2NC(=O)[C@@H](Cc3ccccc3)NC(=O)[C@H](CC(=O)O)NC(=O)CNC(=O)[C@H](CCCNC(=N)N)NC2=O)NC(=O)[C@@H](Cc2ccccc2)NC(=O)[C@H](CC(=O)O)NC(=O)CNC1=O [indium-111 labelled]			female athymic nu/nu mice, muscle	intravenous, 111 kBq, 72 h		tissue uptake	0.2 ± 0.05 %ID/g
CC[C@H]1[C@@H](O)[C@@H]2[C@H](CC[C@]3(C)[C@@H]([C@H](C)CCOS(=O)(=O)[O-])CC[C@@H]23)[C@@]2(C)CC[C@@H](O)C[C@@H]12.[Na+]		EchoMRI	ob/ob NASH mouse model	oral, 3 mg/kg once daily, before treatment, baseline of 8 week study		whole-body fat mass	18.5 ± 0.7 g
CCCCOc1ccc(C(=O)OCC[N+]2(C)CC=CCC2)cc1 (stereo not shown)	CHRM3	inositol phosphate accumulation, antagonist, Schild analysis	CHO	with: carbachol		Kb	3.16 µM
O=Cc1c(O)ccc2ccccc12	HUVEC	RNA sequencing, refers to: TCF19		75 µM, 24 h	reference: DMSO	log2 fold change	-2.89
[64Cu+2].c1ccc(CNCc2ccc(CN3CCCN4CCNCCCN(CC4)CC3)cc2)nc1	CXCR4		NOD/SCID mouse, U87 and U87-stb-CXCR4 xenografts, liver	iv, 120 min, ex vivo		tissue uptake	92.8 ± 20.5 %ID/g
CC(C)C[C@H](NC(=O)[C@H](Cc1ccc(O)cc1)NC(=O)[C@@H](CCCNC(=N)N)NC(=O)[C@@H](CO)NC(=O)[C@H](Cc1ccccc1)NC(=O)[C@H](CC1CCCCC1)NC(=O)[C@H](CC(=O)O)NC(=O)CN1CCCN2CCN(CCCN(CC(=O)O)CC2)CC1)C(=O)N[C@@H](Cc1c[nH]c2ccccc12)C(=O)N[C@@H](CO)C(=O)O [copper-64 labelled]			female NMRI nude mice, kidney	22 h p.i.		tissue uptake	5.2 ± 1.4 %ID/g
CCCCOc1ccc(C(=O)OCCN2CC=CCC2)cc1	CHRM3	inositol phosphate accumulation, antagonist, Schild analysis	CHO	with: carbachol		Kb	29.5 µM
[64Cu+2].c1cnc(CNCc2ccc(CN3CCCN4CCNCCCN(CC4)CC3)cc2)nc1	CXCR4		NOD/SCID mouse, U87 xenografts, U87 tumour	90 min		tissue uptake	2.57 ± 0.44 %ID/g
Cc1cc(-c2ccc(NC(=O)[C@H](CCCCNC(=O)CCN3C(=O)CC(SCCC(=O)N[C@H](Cc4ccccc4)C(=O)N[C@H]4CSSC[C@@H](C(=O)N[C@H](C(=O)O)[C@@H](C)O)NC(=O)[C@H]([C@@H](C)O)NC(=O)[C@H](CCCCN)NC(=O)[C@@H](Cc5c[nH]c6ccccc56)NC(=O)[C@H](Cc5ccc(O)cc5)NC4=O)C3=O)NC(=O)CN3CCN(CC(=O)O)CCN(CC(=O)O)CCN(CC(=O)O)CC3)c(C)c2)ccc1N=Nc1ccc2c(S(=O)(=O)O)cc(S(=O)(=O)O)c(N)c2c1O (stereo partly shown) [lutetium-177 labelled]		SPECT/CT dosimetry	patients with metastatic NETs, all tumour lesions			absorbed dose	0.71 ± 0.13 Gy/GBq
N=C(N)NCCC[C@@H]1NC(=O)[C@H](CCCCNC(=O)CNC(=O)CNC(=O)CNC(=O)CC[C@H](NC(=O)CNC(=O)CNC(=O)CNC(=O)CC[C@H](NC(=O)CN2CCN(CC(=O)O)CCN(CC(=O)O)CCN(CC(=O)O)CC2)C(=O)NCC(=O)NCC(=O)NCC(=O)N[C@@H](CCC(=O)NCC(=O)NCC(=O)NCC(=O)NCCCC[C@@H]2NC(=O)[C@@H](Cc3ccccc3)NC(=O)[C@H](CC(=O)O)NC(=O)CNC(=O)[C@H](CCCNC(=N)N)NC2=O)C(=O)NCC(=O)NCC(=O)NCC(=O)NCCCC[C@@H]2NC(=O)[C@@H](Cc3ccccc3)NC(=O)[C@H](CC(=O)O)NC(=O)CNC(=O)[C@H](CCCNC(=N)N)NC2=O)C(=O)NCC(=O)NCC(=O)NCC(=O)NCCCC[C@@H]2NC(=O)[C@@H](Cc3ccccc3)NC(=O)[C@H](CC(=O)O)NC(=O)CNC(=O)[C@H](CCCNC(=N)N)NC2=O)NC(=O)[C@@H](Cc2ccccc2)NC(=O)[C@H](CC(=O)O)NC(=O)CNC1=O [indium-111 labelled]			female athymic nu/nu mice, intestine	intravenous, 0.5 h		tissue uptake	7.15 ± 3.7 %ID/g
CCCC[C@H](NC(=O)CCCCCCCNC(=O)CN1CCN(CC(=O)O)CCN(CC(=O)O)CC1)C(=O)N[C@H]1CC(=O)NCCCC[C@@H](C(N)=O)NC(=O)[C@H](Cc2c[nH]c3ccccc23)NC(=O)[C@H](CCCNC(=N)N)NC(=O)[C@@H](Cc2ccccc2)NC(=O)[C@H](Cc2c[nH]cn2)NC1=O [copper-64 labelled]			C57 mice, spleen	intravenous, 0.37 MBq, 24 h		tissue uptake	0.1 ± 0.14 %ID/g
NS(=O)(=O)c1ccc(NC(=O)NN[C@@H]2O[C@H](CO)[C@@H](O)[C@H](O)[C@@H]2O)cc1	rabbit erythrocytes			64 µg/mL, 3 h	reference: complete lysis	hemolysis	5.05%
N=C(N)NCCC[C@@H]1NC(=O)[C@H](CCCCNC(=O)CC[C@H](NC(=O)CC[C@H](NC(=O)CN2CCN(CC(=O)O)CCN(CC(=O)O)CCN(CC(=O)O)CC2)C(=O)N[C@@H](CCC(=O)NCCCC[C@@H]2NC(=O)[C@@H](Cc3ccccc3)NC(=O)[C@H](CC(=O)O)NC(=O)CNC(=O)[C@H](CCCNC(=N)N)NC2=O)C(=O)NCCCC[C@@H]2NC(=O)[C@@H](Cc3ccccc3)NC(=O)[C@H](CC(=O)O)NC(=O)CNC(=O)[C@H](CCCNC(=N)N)NC2=O)C(=O)NCCCC[C@@H]2NC(=O)[C@@H](Cc3ccccc3)NC(=O)[C@H](CC(=O)O)NC(=O)CNC(=O)[C@H](CCCNC(=N)N)NC2=O)NC(=O)[C@@H](Cc2ccccc2)NC(=O)[C@H](CC(=O)O)NC(=O)CNC1=O [indium-111 labelled]			female athymic nu/nu mice, brain	intravenous, 1 h		tissue uptake	0.12 ± 0.01 %ID/g
C/C=C(/C)C(=O)O[C@H]1C(C)=C2[C@H]([C@@H]1OC(=O)CCCCCCC)[C@@](C)(OC(C)=O)C[C@H](OC(=O)CCCCCCCCCCCNC(=O)C[C@H](N)C(=O)N[C@@H](CCC(=O)N[C@@H](CCC(=O)N[C@@H](CCC(=O)N[C@@H](CCC(=O)O)C(=O)O)C(=O)O)C(=O)O)C(=O)O)[C@@]1(O)[C@H]2OC(=O)[C@@]1(C)O			human patients, plasma	intravenous infusion, 1 h infusion		alpha half-life	2.05 h

Some of these lines once more:
SMILES	tested on	assay	test system	setting	scale	measurement	result
N=C(N)NCCC[C@H](NC(=O)[C@@H]1CSSC[C@H](NC(=O)[C@H](Cc2ccc3ccccc3c2)NC(=O)[C@H](CCCNC(=N)N)NC(=O)[C@H](CCCNC(=N)N)NC(=O)CN2CCN(CC(=O)O)CCN(CC(=O)O)CC2)C(=O)N[C@@H](Cc2ccc(O)cc2)C(=O)N[C@@H](CCCNC(N)=O)C(=O)N[C@@H](CCCCN)C(=O)N[C@H](CCCCN)C(=O)N2CCC[C@H]2C(=O)N[C@@H](Cc2ccc(O)cc2)C(=O)N[C@@H](CCCNC(=N)N)C(=O)N[C@@H](CCCNC(N)=O)C(=O)N1)C(N)=O [gallium-68 labelled]			normal brain			SUVmax range	0.1 to 0.13
N=C(N)NCCC[C@@H]1NC(=O)[C@H](CCCCNC(=O)CNC(=O)CNC(=O)CNC(=O)CC[C@H](NC(=O)CNC(=O)CNC(=O)CNC(=O)CN2CCN(CC(=O)O)CCN(CC(=O)O)CCN(CC(=O)O)CC2)C(=O)NCC(=O)NCC(=O)NCC(=O)NCCCC[C@@H]2NC(=O)[C@@H](Cc3ccccc3)NC(=O)[C@H](CC(=O)O)NC(=O)CNC(=O)[C@H](CCCNC(=N)N)NC2=O)NC(=O)[C@@H](Cc2ccccc2)NC(=O)[C@H](CC(=O)O)NC(=O)CNC1=O [indium-111 labelled]			female athymic nu/nu mice, muscle	intravenous, 111 kBq, 72 h		tissue uptake	0.2 ± 0.05 %ID/g
Cc1cc(-c2ccc(NC(=O)[C@H](CCCCNC(=O)CCOCCOCCC(=O)N[C@H](Cc3ccccc3)C(=O)N[C@H]3CSSC[C@@H](C(=O)N[C@H](C(=O)O)[C@@H](C)O)NC(=O)[C@H]([C@@H](C)O)NC(=O)[C@H](CCCCN)NC(=O)[C@@H](Cc4c[nH]c5ccccc45)NC(=O)[C@H](Cc4ccc(O)cc4)NC3=O)NC(=O)CN3CCN(CC(=O)O)CCN(CC(=O)O)CCN(CC(=O)O)CC3)c(C)c2)ccc1N=Nc1ccc2c(S(=O)(=O)O)cc(S(=O)(=O)O)c(N)c2c1O [gallium-68 labelled]		micro-PET	male BALB/c nude mouse, AR42J xenograft, tumour and kidney	intravenous, 7.4 MBq, 4 h	reference: tumour over kidney	tumour-to-tissue uptake ratio	2.02 ± 0.23
